Measured values gathered from unrelated publications.
A part holds a random share of what one study measured.
UniProt P51813, sequence (whole entry, looked up): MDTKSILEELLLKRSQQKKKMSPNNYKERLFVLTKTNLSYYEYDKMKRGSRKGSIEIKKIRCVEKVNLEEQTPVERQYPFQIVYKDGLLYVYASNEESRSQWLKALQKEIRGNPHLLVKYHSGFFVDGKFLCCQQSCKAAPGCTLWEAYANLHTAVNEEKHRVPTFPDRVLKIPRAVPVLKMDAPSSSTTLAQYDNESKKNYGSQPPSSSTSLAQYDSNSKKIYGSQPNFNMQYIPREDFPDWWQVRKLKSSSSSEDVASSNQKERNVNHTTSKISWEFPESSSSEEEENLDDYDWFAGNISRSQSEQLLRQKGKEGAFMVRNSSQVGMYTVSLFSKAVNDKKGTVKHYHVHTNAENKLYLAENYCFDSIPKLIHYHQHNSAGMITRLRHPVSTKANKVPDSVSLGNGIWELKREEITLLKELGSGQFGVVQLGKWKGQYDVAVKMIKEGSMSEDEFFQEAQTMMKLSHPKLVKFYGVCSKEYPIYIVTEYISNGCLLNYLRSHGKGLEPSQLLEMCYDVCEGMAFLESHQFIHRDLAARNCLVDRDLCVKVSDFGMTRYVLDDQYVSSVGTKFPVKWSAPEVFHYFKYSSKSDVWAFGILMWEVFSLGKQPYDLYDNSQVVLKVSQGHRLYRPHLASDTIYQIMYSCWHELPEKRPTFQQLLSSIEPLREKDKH
UniProt Q13546, sequence (whole entry, looked up): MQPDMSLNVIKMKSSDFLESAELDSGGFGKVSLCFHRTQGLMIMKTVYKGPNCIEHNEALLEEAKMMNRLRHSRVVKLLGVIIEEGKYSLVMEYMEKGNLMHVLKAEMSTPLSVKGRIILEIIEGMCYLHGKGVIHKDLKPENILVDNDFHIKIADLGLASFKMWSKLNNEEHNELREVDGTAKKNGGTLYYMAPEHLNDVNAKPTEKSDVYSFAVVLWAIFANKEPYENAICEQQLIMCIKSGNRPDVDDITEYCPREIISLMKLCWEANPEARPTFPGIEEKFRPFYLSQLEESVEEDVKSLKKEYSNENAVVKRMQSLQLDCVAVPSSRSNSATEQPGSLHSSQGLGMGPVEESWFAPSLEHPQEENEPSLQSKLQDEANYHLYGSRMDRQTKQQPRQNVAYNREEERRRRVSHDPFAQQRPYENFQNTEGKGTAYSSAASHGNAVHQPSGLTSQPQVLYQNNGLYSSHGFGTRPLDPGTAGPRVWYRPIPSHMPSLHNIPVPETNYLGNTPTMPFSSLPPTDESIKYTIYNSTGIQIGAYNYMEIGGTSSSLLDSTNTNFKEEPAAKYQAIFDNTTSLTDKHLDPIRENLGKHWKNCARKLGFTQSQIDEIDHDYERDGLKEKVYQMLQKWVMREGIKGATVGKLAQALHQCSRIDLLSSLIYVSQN
UniProt Q9Y4K4, sequence (whole entry, looked up): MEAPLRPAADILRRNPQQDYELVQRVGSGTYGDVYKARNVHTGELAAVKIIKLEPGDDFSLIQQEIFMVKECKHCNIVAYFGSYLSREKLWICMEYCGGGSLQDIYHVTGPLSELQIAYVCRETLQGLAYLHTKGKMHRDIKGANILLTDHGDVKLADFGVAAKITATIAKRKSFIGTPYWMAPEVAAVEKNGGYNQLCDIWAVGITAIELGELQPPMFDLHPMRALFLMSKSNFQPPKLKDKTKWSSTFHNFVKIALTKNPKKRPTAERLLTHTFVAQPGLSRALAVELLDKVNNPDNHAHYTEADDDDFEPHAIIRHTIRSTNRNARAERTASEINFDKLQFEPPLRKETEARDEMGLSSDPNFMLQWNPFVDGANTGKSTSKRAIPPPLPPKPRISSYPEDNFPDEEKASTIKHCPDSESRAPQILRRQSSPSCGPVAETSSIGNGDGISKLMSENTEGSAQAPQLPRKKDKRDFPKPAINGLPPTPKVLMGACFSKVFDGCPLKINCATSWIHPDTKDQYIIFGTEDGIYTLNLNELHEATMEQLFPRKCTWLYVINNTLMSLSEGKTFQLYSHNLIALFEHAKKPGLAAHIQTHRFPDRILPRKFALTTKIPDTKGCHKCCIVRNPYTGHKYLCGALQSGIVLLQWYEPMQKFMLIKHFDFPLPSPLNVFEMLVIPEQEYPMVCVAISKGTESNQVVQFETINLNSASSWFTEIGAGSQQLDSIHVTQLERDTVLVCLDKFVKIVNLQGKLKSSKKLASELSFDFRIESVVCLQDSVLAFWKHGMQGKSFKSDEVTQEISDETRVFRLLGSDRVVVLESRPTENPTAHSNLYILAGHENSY
UniProt P10721, sequence (whole entry, unmodified, looked up): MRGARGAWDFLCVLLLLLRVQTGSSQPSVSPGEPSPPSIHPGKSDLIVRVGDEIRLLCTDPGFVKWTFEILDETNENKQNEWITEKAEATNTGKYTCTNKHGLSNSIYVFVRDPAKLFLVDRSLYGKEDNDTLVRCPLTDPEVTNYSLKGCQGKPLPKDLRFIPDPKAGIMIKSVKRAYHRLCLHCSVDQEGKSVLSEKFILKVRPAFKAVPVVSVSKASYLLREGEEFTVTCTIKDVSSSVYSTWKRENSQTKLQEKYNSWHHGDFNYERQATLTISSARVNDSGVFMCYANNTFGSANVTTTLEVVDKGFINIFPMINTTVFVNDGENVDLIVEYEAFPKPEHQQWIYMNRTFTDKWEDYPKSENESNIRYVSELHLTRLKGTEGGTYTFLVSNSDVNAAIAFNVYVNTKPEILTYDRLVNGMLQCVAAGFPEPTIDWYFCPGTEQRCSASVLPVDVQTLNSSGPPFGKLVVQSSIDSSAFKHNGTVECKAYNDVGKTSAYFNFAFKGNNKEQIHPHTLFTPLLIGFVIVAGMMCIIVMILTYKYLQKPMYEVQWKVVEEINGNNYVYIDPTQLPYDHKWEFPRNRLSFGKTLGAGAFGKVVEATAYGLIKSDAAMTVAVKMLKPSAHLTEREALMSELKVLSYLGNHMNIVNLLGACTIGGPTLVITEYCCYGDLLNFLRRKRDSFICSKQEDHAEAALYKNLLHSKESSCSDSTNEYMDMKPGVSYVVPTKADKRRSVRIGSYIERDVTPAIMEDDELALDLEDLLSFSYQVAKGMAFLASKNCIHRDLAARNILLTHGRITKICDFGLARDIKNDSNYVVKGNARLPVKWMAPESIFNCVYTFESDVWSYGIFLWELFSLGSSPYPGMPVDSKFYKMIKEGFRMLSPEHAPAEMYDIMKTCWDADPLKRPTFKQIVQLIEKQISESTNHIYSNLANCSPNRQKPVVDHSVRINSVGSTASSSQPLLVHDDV

Block 1
Compound: Cc1ncc(-c2cc3cc(-c4c(C)ccc(O)c4C)cnc3[nH]2)cn1
Target: Membrane-associated tyrosine- and threonine-specific cdc2-inhibitory kinase (PKMYT1, Homo sapiens, UniProt Q99640)
UniProt Q99640, sequence (whole entry, looked up): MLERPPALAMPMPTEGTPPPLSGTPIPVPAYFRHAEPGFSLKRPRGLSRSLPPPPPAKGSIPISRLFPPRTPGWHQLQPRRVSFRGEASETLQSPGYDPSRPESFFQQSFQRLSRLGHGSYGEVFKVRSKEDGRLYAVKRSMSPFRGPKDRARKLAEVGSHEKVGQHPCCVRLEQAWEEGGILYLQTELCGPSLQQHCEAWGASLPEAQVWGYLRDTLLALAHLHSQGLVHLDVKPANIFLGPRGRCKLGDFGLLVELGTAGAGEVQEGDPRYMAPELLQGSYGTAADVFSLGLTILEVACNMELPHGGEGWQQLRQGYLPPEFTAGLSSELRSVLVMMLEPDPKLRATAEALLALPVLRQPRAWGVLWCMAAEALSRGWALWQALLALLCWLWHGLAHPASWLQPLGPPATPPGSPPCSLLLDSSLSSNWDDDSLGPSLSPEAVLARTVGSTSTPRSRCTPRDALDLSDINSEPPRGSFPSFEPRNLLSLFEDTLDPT
Effect on: cell-free assay
Method: TR-FRET
Measurement: inhibition
41.15 nM: 69.6%
1.111 µM: 98.3%
0.3704 µM: 95.8%

Block 2
Target: MAP kinase-activated protein kinase 3 (MAPKAPK3, Homo sapiens, UniProt Q16644)
UniProt Q16644, sequence (whole entry, looked up): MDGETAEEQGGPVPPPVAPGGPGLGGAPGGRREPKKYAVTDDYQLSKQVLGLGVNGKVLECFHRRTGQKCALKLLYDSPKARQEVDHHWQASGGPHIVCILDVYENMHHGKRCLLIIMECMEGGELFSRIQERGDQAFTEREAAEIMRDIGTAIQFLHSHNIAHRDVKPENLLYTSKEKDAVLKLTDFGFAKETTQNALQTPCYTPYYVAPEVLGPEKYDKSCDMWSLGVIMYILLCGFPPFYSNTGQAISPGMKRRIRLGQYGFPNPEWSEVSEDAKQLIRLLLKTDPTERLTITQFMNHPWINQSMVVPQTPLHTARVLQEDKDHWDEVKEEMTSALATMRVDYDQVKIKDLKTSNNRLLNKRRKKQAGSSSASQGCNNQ
Effect on: enzyme activity
Action: inhibitor
Concentration: 0.5 µM
Relative to: control
Measurement: remaining activity
COc1ccc(OC)c2c(=S)c3ccccc3[nH]c12: 87.7%
O=C1NC(=O)C(c2cn(CCCO)c3ncccc23)=C1c1cnccn1: 103%
Oc1ccc(-c2nc(-c3ccncc3)c(-c3ccc(F)cc3)[nH]2)cc1: 101%
CC(C)[C@H](CO)Nc1nc(Nc2cc(N)cc(Cl)c2)c2ncn(C(C)C)c2n1: 98.4%
O=C(Nc1cccc(Nc2cc(Nc3cccc(C(F)(F)F)c3)ncn2)c1)C1CC1: 104%
Nc1ncnc2n[nH]c(Nc3ccc(F)cc3)c12: 94%
COc1cc2ncnc(Nc3ccc(Oc4ccccc4)cc3)c2cc1OC: 99%
OCC(O)CCON=C1C(c2c(O)[nH]c3ccccc23)=Nc2ccccc21 (stereo not drawn): 98.9%
COc1cc2ncnc(Nc3ccc(F)c(Cl)c3)c2cc1OCCCN1CCOCC1: 99.6%
Cn1sc(=O)n(Cc2ccccc2)c1=O: 105%
O=c1c2ccccc2[nH]c(=S)n1CCN1CCC(=C(c2ccc(F)cc2)c2ccc(F)cc2)CC1: 109%
NCCNc1ncc(C(N)=O)c(Nc2cccc(C(F)(F)F)c2)n1: 88.9%
CCOC(=O)c1c(C)[nH]c(/C=C2\C(=O)Nc3ccccc32)c1C: 91.7%
O=C(CCCc1ccc(-c2ccccc2F)cc1)Nc1ccc(O)cc1: 91%
Cc1ccc(Nc2nccc(N(C)c3ccc4c(C)n(C)nc4c3)n2)cc1S(N)(=O)=O: 98.5%

Block 3
Compound: CC1=C(C#N)C(c2ccc3c(c2)c(NC(=O)c2ccccc2C)nn3C)C(C#N)=C(C)N1
Effect on: cell-free assay
Method: competition with immobilised ligand
Concentration: 1 µM
Measurement: remaining binding
Cytoplasmic tyrosine-protein kinase BMX (BMX, Homo sapiens, UniProt P51813): 85%
Receptor-interacting serine/threonine-protein kinase 1 (RIPK1, Homo sapiens, UniProt Q13546): 100%
Mast/stem cell growth factor receptor Kit (KIT, Homo sapiens, UniProt P10721, A829P): 64%
Mitogen-activated protein kinase kinase kinase kinase 5 (MAP4K5, Homo sapiens, UniProt Q9Y4K4): 100%
Dual specificity tyrosine-phosphorylation-regulated kinase 1A (DYRK1A, Homo sapiens, UniProt Q13627): 97%

Block 4
Organism: Sarcocystis neurona
Effect on: parasite growth
Concentration: 10 µM
Time: 96 h
Setting: first screen
Relative to: untreated
Measurement: log2 fold change
CCOC(=O)C1=C(C)NC(C)=C(C(=O)OCC)C1c1ccccc1/C=C/C(=O)OC(C)(C)C: -1.41
CC(C)NCC(O)c1cc(O)cc(O)c1 (stereo not drawn): 0.2
O=C(O)c1cc(-c2ccc(F)cc2F)ccc1O: 0.09
CC(=O)NC[C@H]1CN(c2ccc(N3CCOCC3)c(F)c2)C(=O)O1: 0.00827
CCCCNc1cc(C(=O)O)cc(S(N)(=O)=O)c1Oc1ccccc1: 0.3
CC1=C(/C=C/C(C)=C/C=C/C(C)=C\C(=O)O)C(C)(C)CCC1: 0.15
CN(C)CCC(c1ccc(Cl)cc1)c1ccccn1 (stereo not drawn): 0.09

Some of these lines once more (block 1):
41.15 nM: 69.6%
1.111 µM: 98.3%
0.3704 µM: 95.8%
